Published values pooled from the literature.
Each line is one published result; not all experiments were run side by side.
B1: PPIP5K2 (Homo sapiens, UniProt O43314); chain MSEAPRFFVGPEDTEINPGNYRHFFHHADEDDEEEDDSPPERQIVVGICSMAKKSKSKPMKEILERISLFKYITVVVFEEEVILNEPVENWPLCDCLISFHSKGFPLDKAVAYAKLRNPFVINDLNMQYLIQDRREVYSILQAEGILLPRYAILNRDPNNPKECNLIEGEDHVEVNGEVFQKPFVEKPVSAEDHNVYIYYPTSAGGGSQRLFRKIGSRSSVYSPESNVRKTGSYIYEEFMPTDGTDVKVYTVGPDYAHAEARKSPALDGKVERDSEGKEVRYPVILNAREKLIAWKVCLAFKQTVCGFDLLRANGQSYVCDVNGFSFVKNSMKYYDDCAKILGNIVMRELAPQFHIPWSIPLEAED
B2: genB3 (Micromonospora echinospora, UniProt Q2MG50); chain MDSANLTNRGLVERARRVTAAENYDIGTRFSAMIQSGEGAWLTDVEGNRYVDLTASSGTIILGHRNQAVTEAITRQIRDFGTAFASTLSVPRVELAERLCERYECAEKVVFHKTGSEGTAMAARLARAATGRELILSCGYHGWHEWQLAGETFGYQQTTGVVGFGYNEKALAKMLEAFGNEVAGVLISPELLYFDVEFYQRMYALCARYDVPFMMDEVYTGFRAGPKGVHGLGVPADVVVVSKGLANGHSLAAVMGRRDIIDAYDVSGIQGTYTREVPPMAAAMAVLDVLDTPGVYEHAEAMGRRLADGMREILTGEGIPNWVGGPALMFDTVLPNDDLGWEIYKTAHDFGVYFEDSGTQLVTTAFDEAAVDHALTAFRKATRQVIADRPDIAPTSGGELTEERKLDFAEEAFGGLLRDDERTNALIDETIEKVVNRDRSIKPVLIPAQN
B3: NTMT1 (Homo sapiens, UniProt Q9BV86); chain MTSEVIEDEKQFYSKAKTYWKQIPPTVDGMLGGYGHISSIDINSSRKFLQRFLREGPNKTGTSCALDCGAGIGRITKRLLLPLFREVDMVDITEDFLVQAKTYLGEEGKRVRNYFCCGLQDFTPEPDSYDVIWIQWVIGHLTDQHLAEFLRRCKGSLRPNGIIVIKDNMAQEGVILDDVDSSVCRDLDVVRRIICSAGLSLLAEERQENLPDEIYHVYSFAL
B4: protein (Thermotoga neapolitana, UniProt B9K712); chain MKMLYDLAKKRKTVRRFKKEKPPLEDLIYSLKVANEAPSGMNAQPWRFLIVEDEKLKGQIRRVCERSEKTFYENVRGRLKEWLDEKRFTWRKPFLKEAPYLLLVFSEKSAPYSRESVWLAVGYLLLALEEKGLGSVPYTPPDFREVEKLVNTPSELRLEVILPVGYPDDPKPKYPRNEVIVRYNTF
B5: enzyme (Trypanosoma brucei, UniProt Q57W34); chain MTKGGKVAVTKGSAQSDGAGEGGMSKAKSSTTFVATGGGSLPAWALKAVSTIVSAVILIYSVHRAYDIRLTSVRLYGELIHEFDPWFNYRATQYLSDNGWRAFFQWYDYMSWYPLGRPVGTTIFPGMQLTGVAIHRVLEMLGRGMSINNICVYIPAWFGSIATVLAALIAYESSNSLSVMAFTAYFFSIVPAHLMRSMAGEFDNECVAMAAMLLTFYMWVRSLRSSSSWPIGALAGVAYGYMVSTWGGYIFVLNMVAFHASVCVLLDWARGIYSVSLLRAYSLFFVIGTALAICVPPVEWTPFRSLEQLTALFVFVFMWALHYSEYLRERARAPIHSSKALQIRARIFMGTLSLLLIVASLLAPFGFFKPTAYRVRALFVKHTRTGNPLVDSVAEHRPTTAGAYLRYFHVCYPLWGCGGLSMLVFMKKDRWRAIVFLASLSTVTMYFSARMSRLLLLAGPAATACAGMFIGGLFDLALSQFGDLHSPKDASGDSDPAGGSKRAKGKVVNEPSKRAIFSHRWFQRLVQSLPVPLRRGIAVVVLVCLFANPMRHSFEKSCEKMAHALSSPRIIAVTDLPNGERVLADDYYVSYLWLRNNTPEDARILSWWDYGYQITGIGNRTTLADGNTWSHKHIATIGKMLTSPVKESHALIRHLADYVLIWAGEDRGDLLKSPHMARIGNSVYRDMCSEDDPRCRQFGFEGGDLNKPTPMMQRSLLYNLHRFGTDGGKTQLDKNMFQLAYVSKYGLVKIYKVVNVSEESKAWVADPKNRVCDPPGSWICAGQYPPAKEIQDMLAKRFHYE
B6: Msrb2 C98S (Mus musculus, UniProt Q78J03); chain ADWQKKLTPEQFYVTREKGTEAPFSGMYLNNKETGMYHCVCCDSPLFSSEKKYSSGTGWPSFSEAYGSKGSDESHTGILRRLDTSLGCPRMEVVCKQCEAHLGHVFPDGPKPTGQRFCINSVALKFKPSKP
Sequence of UniProt P19525 (whole entry, unmodified, looked up): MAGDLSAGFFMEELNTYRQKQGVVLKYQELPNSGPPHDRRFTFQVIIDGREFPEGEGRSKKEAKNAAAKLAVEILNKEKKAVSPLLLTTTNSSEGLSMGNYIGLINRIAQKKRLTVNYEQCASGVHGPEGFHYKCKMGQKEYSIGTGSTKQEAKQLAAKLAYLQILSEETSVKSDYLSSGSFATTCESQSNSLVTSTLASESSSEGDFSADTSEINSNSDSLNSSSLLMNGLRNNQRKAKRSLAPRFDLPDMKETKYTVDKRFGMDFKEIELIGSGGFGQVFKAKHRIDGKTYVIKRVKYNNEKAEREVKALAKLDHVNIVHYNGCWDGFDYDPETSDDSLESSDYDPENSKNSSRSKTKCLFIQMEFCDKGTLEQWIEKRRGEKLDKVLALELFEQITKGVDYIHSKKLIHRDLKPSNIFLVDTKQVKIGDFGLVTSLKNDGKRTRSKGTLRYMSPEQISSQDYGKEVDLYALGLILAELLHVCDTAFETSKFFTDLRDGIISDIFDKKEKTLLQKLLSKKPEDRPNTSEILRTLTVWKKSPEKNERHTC
Sequence of UniProt P0DMM9 (whole entry, looked up): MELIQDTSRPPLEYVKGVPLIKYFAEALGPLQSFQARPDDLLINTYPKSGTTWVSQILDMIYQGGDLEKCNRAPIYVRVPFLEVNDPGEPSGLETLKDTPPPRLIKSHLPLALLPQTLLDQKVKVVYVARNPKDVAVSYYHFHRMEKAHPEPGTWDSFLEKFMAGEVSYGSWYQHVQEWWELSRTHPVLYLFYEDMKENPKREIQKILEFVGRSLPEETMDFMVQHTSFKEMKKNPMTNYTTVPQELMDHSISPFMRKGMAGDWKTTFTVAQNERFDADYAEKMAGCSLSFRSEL
Sequence of UniProt O15229 (whole entry, looked up): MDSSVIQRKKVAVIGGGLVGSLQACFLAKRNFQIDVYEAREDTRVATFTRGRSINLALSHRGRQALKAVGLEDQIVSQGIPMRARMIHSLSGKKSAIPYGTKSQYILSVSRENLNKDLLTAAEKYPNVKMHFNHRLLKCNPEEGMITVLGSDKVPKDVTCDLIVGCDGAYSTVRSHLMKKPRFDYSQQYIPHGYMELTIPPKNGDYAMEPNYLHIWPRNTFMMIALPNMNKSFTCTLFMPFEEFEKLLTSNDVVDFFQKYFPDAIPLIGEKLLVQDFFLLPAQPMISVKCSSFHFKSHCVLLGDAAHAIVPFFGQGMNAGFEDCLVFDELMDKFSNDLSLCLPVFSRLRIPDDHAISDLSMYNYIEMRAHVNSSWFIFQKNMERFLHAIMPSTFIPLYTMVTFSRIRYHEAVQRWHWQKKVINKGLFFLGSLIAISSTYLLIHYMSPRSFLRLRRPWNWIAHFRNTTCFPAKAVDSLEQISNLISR
Sequence of UniProt Q6PIY7 (whole entry, looked up): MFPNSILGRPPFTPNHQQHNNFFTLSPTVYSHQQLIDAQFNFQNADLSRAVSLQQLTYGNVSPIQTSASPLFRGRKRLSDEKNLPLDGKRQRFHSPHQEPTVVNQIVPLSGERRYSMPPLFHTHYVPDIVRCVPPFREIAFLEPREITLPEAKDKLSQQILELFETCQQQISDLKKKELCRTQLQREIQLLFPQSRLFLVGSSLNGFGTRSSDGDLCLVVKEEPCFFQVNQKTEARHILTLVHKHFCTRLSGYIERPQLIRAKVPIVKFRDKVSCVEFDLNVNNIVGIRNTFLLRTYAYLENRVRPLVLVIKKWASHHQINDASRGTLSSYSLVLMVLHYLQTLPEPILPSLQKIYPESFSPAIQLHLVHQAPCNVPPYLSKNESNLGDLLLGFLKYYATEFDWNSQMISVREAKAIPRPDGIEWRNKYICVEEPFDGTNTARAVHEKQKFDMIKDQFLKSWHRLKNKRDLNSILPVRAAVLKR

Molecule	tested on	assay	system	conditions	endpoint	value
RNA 1 GGAGGAUGUUAAUUGGCGUGUCUUGUCUGCAACGGUAUUC / RNA 2 GAAUACCGUUGCAGACAAGACACGCCAAUUAACAUCCUCC (dsRNA)	EIF2AK2 1-185 Y142W/Q110A (Homo sapiens, UniProt P19525)	tryptophan fluorescence anisotropy	double-stranded RNA	1 µM	binding	binds
B1 (PPIP5K2)	O=P(O)(O)O[C@@H]1[C@@H](OP(=O)(O)O)[C@H](OP(=O)(O)OP(=O)(O)O)[C@@H](OP(=O)(O)O)[C@H](OP(=O)(O)OP(=O)(O)O)[C@@H]1OP(=O)(O)O	steady-state kinetics			Km	0.022 µM
enzyme (Astragalus mongholicus, UniProt A0A977WMT0)	[H][C@@]1(O[C@H]2CC[C@]34C[C@]35CC[C@@]3(C)[C@@](C)(C[C@H](O)[C@]3([H])[C@@]3(C)CC[C@@]([H])(C(C)(C)O)O3)[C@]5([H])C[C@H](O)[C@@]4([H])C2(C)C)OC[C@@H](O)[C@H](O)[C@H]1O	steady-state kinetics			Km	54.2 µM
KMO (Homo sapiens, UniProt O15229)	Nc1ccccc1C(=O)CC(N)C(=O)O	steady-state kinetics		37 °C, apparent, not purified	Km	78 µM
TENT2 (Homo sapiens, UniProt Q6PIY7)	O=c1ccn([C@@H]2O[C@H](COP(=O)(O)OP(=O)(O)OP(=O)(O)O)[C@@H](O)[C@H]2O)c(=O)[nH]1	steady-state kinetics		pH 8, 37 °C	Km	169 µM
B2 (genB3)	CN[C@@H]1[C@@H](O)[C@@H](O[C@@H]2[C@@H](O)[C@H](O[C@H]3O[C@H](CN)[C@@H](O)[C@H](OP(=O)(O)O)[C@H]3N)[C@@H](N)C[C@H]2N)OC[C@]1(C)O	steady-state kinetics		30 °C	Km	500 µM
B3 (NTMT1)	CC[C@H](C)[C@H](NC(=O)[C@H](CCCNC(=N)N)NC(=O)[C@H](CCCCN)NC(=O)[C@@H]1CCCN1C(=O)[C@@H](N)CO)C(=O)N[C@@H](C)C(N)=O	steady-state kinetics		1536-well miniaturized	Km	0.5 µM
B4 (protein)	N[C@@H](Cc1ccc(O)c(I)c1)C(=O)O	steady-state kinetics		pH 7.4, 25 °C	Km	0.22 µM
B5 (enzyme)	CC(=O)N[C@H]1[C@@H](OP(=O)(O)OP(=O)(O)OCC[C@@H](C)CC/C=C(/C)CC/C=C(/C)CCC=C(C)C)O[C@H](CO)[C@@H](O[C@@H]2O[C@H](CO)[C@@H](O)[C@H](O)[C@H]2NC(C)=O)[C@@H]1O	steady-state kinetics		pH 7.5	Km	2.7 µM
SULT1A3 (Homo sapiens, UniProt P0DMM9)	O=C(O[C@@H]1Cc2c(O)cc(O)cc2O[C@@H]1c1cc(O)c(O)c(O)c1)c1cc(O)c(O)c(O)c1	steady-state kinetics		pH 7.4, not purified	Km	2.29 µM
B6 (Msrb2 C98S)	CN(C)c1ccc(/N=N/c2ccc(S(=O)(=O)N[C@@H](CC[S@@+](C)[O-])C(=O)O)cc2)cc1	steady-state kinetics		pH 7.5, NaCl 50 mM, with: DTT 20 mM	Km	50 µM

Repeated from above:
Molecule	tested on	assay	system	conditions	endpoint	value
TENT2 (Homo sapiens, UniProt Q6PIY7)	O=c1ccn([C@@H]2O[C@H](COP(=O)(O)OP(=O)(O)OP(=O)(O)O)[C@@H](O)[C@H]2O)c(=O)[nH]1	steady-state kinetics		pH 8, 37 °C	Km	169 µM
